Experimental data gathered from unrelated publications.
Numbered parts are unrelated; each lists some results of a single study.

Block 1 — technique: protein binding microarray; molecule type: double-stranded DNA, one strand shown; matrix: in vitro; concentration: not given; relative to: not given; direction: higher = stronger binding
Target: Histone acetyltransferase KAT6A, winged helix 1, GST fusion (KAT6A, Homo sapiens, UniProt Q92794, residues 1-85)
Setting: 8-mer, flanks averaged, mean of 2 arrays, mostly near background
Residues (chain): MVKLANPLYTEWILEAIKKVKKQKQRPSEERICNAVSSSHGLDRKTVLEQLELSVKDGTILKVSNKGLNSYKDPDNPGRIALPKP
Sequence | E-score
ACGTTAAA | -0.0975
CCAAGCCC | -0.0179
AATAACCA | -0.337
ATGTGACA | -0.0275
AACGATCT | -0.0384
ATCCCATA | -0.0982
CAACGAGG | -0.145
CTGCTGGC | 0.0802
CTTTCGAC | -0.178
CCAACCGC | 0.129
AACCTCGC | 0.0873
AATTCTAC | -0.198
CCAAGGCC | 0.00866
TCGTGGCA | -0.167
ACGAAGGG | -0.207
TTAAACAA | -0.285
ATACAGTG | -0.211
TAGGCGGA | 0.104
CAGCCACC | -0.0703
ACTCCCAG | 0.0135
ATCCAGAC | -0.025
AGGGTAAC | -0.126
CCGGCTAC | 0.249
ATTGGCAA | -0.207
CCCGATCA | 0.128

Block 2 — technique: RNA Bind-n-Seq; molecule type: RNA; matrix: in vitro; concentration: not given; relative to: input RNA pool; direction: higher = stronger binding
Target: RING finger protein unkempt homolog, zinc fingers 1-6, GST-SBP tag (UNK, Homo sapiens, UniProt Q9C0B0, residues 30-357)
Sequence of UniProt Q9C0B0 (30-357, looked up): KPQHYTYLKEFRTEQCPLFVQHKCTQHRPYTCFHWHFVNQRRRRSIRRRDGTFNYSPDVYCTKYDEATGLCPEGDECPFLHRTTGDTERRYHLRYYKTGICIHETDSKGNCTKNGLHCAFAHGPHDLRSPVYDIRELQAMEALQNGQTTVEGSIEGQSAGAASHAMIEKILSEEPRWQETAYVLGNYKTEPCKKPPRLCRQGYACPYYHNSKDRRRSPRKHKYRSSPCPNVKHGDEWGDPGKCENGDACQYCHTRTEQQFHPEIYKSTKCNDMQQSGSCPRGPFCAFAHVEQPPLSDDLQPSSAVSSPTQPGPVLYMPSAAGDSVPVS
Setting: RNA with constant flanks, human-mouse chimeric sites, ends assumed
Sequence | bound/input enrichment
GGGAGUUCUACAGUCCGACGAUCUAAGUUAUUUUGUACAGCUUUGUAAAUUCUUAACAUUUUUAUAUUGCCAUGUUUAUUUUGUUUGGGUGCUUUAUUAAAUACAUGGCCUAGCUAAGGUAAUGAACAUCUUUUUCAGUAAUUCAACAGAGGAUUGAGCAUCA | 5.43 ratio
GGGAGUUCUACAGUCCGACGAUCCACGUGUCUGCAGUACUUGAUGUGGACUACUCUCCCACUGGGAAGGAAUUUGUGUCUGCCAGCUUUGAUAAGUCUAUUCGAAUCUUUCCUGUAGACAAGAGCCGAAGCAGGGAAGUGUAUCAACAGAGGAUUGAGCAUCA | 0.281 ratio
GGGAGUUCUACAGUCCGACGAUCUCUUUGUUUGUAACUUAUGUAAAAGGUUCCCCCCCCCUACUGUCAAAAAAUAUGCAUGUAUAGUAAUUAGGACUUCAUUCCUCCAUGUUUUCUUCCCUUAUCUUACUGUCAUUGUCCUUACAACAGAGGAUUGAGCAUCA | 2.49 ratio
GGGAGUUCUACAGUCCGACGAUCGGUGGGGUGGUCAUUGCCGUUUGAGCUGCUGAUUUUCAUGAGUCGCCUUCAAAACUCUCGCAUAGGGUUGACAAUGUAAGGGGUGGGGGGAUCCAGCUUAUUCUUUUAUUUUCAAGUCCACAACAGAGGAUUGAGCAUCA | 0.804 ratio
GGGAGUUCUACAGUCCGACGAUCCCCACGCCUCCUCUCCCACAGGCCCAAGAUAUAACCCACCAGUGCCUUUUGUCUUCCUGUCAGCUCUGUCAAUCACGCCUGUCCUCUCACGCCCACACUCCCCAGCCAAAGUGGGGAGGGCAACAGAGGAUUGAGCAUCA | 0.791 ratio
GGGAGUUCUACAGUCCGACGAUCGGCCUGGACCUUCCUGGGGCUAGUACAAAUAGCGGCAGUGGAGGCUCGAGAGGAAAGUUUGUUAGUGAGGCAGUGGUUAGAGGCCGUCAUGUACGGUCCUUUACUCGAUAGAUGUGUUCUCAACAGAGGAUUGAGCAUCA | 0.421 ratio
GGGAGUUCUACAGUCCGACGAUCCUGAGGAUACCACUGAAGAGACCUUAAAAGAAUCAUUUGAGGGCUCUGUUCGUGCAAGAAUAGUCACCUGACCGGGAAACUGGGUCCCCAAAGGGUUUGGUUUUGUAGACUUUAAUAGUGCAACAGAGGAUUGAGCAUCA | 0.747 ratio
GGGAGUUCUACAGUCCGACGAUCCCCACGCCUCCUCUCCCACAGGCCCAAGAUAUAACCCACCAGUGCCUUUUGUCUUCCUGUCAGCUCUGUCAAUCACGCCUGUCCUCUCACGCCCACACCAAGUGCCCCCACCCCUAAGGGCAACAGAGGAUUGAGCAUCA | 0.514 ratio
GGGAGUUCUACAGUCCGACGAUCUCUUAACUUAUUCAUUUAACUUAUUUUUAUAGCUAGAUAAAUAUUGUUAGUCUUAGAGAGUAGUUCACAUUUUUUGAGAAGCAUGCCCUCCCUAUCCAUUUGUCUUAUAACAUGACCCAGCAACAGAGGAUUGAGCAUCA | 5.19 ratio
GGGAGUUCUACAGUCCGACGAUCAAAGUGGACUAUGGCGAAUACAUGGAUAAAAACAAUGUGAGGCGGCAAGCAACAACAAUCAUAGCUGAUAACAUUAUAUUUCUGAGUGACCAGACAAAAGAGAAGGAAUAGAACGGAUGACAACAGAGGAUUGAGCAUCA | 1.89 ratio
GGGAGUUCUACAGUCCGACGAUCGAAUCCUACUCAGGCGGAUUUUGCAACACCAAGCUCAAGUAGCAAUUAUCUUAGUCACAGUAGGGUAGUUUUGGGGCUCUGUGGCCAGGGUUUUAUUCACAUGCAGGUUUGGAAAAUGUACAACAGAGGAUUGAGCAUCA | 1.89 ratio

Block 3 — organism: Saccharomyces cerevisiae; observed: binding; technique: yeast competitive growth sequencing; molecule type: peptide; strain: cyclin D1-Cln2 strain; matrix: peptide tiling library; setting: pooled screen; direction: direction not given
Molecule | enrichment score
IVLICAKRSLCAAFSV | -2.06
PAKRRLELGE | 0.393
VLVRTSACRSLFGPVD | -0.201
SSEVARHLLFQSHM | -0.312
KPKPVKPVTFSTGIKM | 2.54
PKRAKRKLYTSEISSP | -0.966
SMTDFYHSKRRLIFSK | -0.85
PARRRLRLSVDEVSSP | -0.653

Block 4 — technique: protein-binding microarray; molecule type: double-stranded DNA, one strand shown; matrix: in vitro; concentration: 2200 nM top; setting: 60-bp whole probe; with: salmon DNA 0.4 mg/ml; relative to: random background probes; direction: higher = stronger binding; all sequences stand within: GCCTAGCAC … GTCTTGATTCGCTTGACGCTGCTG
Target: Interferon regulatory factor 7, full length, phosphomimetic (IRF7, Homo sapiens, UniProt Q92985, residues 1-503, S471D/S472D/S475D/S476D/S477D/S483D/S484D/S487D)
Sequence of UniProt Q92985 (whole entry, unmodified, looked up): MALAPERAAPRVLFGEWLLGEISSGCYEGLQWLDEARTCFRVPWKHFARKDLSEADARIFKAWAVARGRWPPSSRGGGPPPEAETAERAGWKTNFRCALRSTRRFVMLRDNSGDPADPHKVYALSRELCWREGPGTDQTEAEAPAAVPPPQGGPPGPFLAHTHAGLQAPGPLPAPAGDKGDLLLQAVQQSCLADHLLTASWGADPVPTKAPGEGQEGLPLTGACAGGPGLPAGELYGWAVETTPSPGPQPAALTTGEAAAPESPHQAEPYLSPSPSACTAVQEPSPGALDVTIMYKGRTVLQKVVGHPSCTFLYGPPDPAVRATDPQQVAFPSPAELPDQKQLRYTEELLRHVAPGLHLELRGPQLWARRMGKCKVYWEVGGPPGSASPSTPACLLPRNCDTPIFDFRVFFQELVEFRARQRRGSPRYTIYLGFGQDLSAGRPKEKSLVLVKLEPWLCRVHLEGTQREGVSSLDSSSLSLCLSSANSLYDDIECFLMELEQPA
Sequence | fitted relative affinity [z-score]
CTGTTCTGCAGACTTCTGTCGTGCTAG | 1.88
CTTCCTTTACTTTCTTTTTTGTGCTAG | 5.37
TTAGGTATCCCTCTCCTTTAGTGCTAG | 1.18
TTAGGACTGGGACTGGGGTAGTGCTAG | -1.03
TCATCTCGGAGATCTCGAACTGTGCTA | 0.284
GTCGGTTTCCTTTCCCTGACGTGCTAG | 6.22
TTAGATATCGGTCTCGATTAGTGCTAG | 0.443
TTAGGCTTCGGGTTTCGGTTAGTGCTA | 3.6
TCATTTTTCTAATTGAAACTGTGCTAG | 2.5
TTAAGTTCCGGTTTCGGTTAGTGCTAG | 9.7
GACGAACTGGGTCTCGAGACGTGCTAG | -0.17
TGCTTTTTAGAAATTTTTTTTGTGCTA | -0.0995
GACGATCTCAGACTGCAGACGTGCTAG | -0.0247
TTAGGTATCGACTTTGGGTTAGTGCTA | 0.304
TTCGGACTGCTACTGCTTTAGTGCTAG | 0.082
AACGGTATCGGACTGGGGACGTGCTAG | -0.156

Block 5 — technique: RNA Bind-n-Seq; molecule type: RNA; matrix: in vitro; concentration: 365 nM; relative to: no-protein control; direction: higher = stronger binding
Target: RNA binding protein fox-1 homolog 2, RRM domain, GST-SBP tag (RBFOX2, Homo sapiens, UniProt O43251-10, residues 100-194)
Setting: natural RNA segment, single round, ends assumed
Residues (chain): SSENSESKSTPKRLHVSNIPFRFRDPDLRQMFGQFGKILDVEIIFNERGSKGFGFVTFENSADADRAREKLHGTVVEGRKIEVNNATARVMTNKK
Sequence | RBNS enrichment (R)
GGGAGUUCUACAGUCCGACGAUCAAUUGGAGGAGGCUUGGCCCUCAGCCCUUAUAUCUCUCUCUUUUUCACUCUCUUCCUCCCACCCCCAAGACUGAGUUUUGGGGGGCAAGGUGGAGAGAGCUGGCAACUACUGGAAUUCUCGGGUGCCAA | 0.198
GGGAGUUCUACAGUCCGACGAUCUCCCUGAGCCUUCUUCCUGCCCUGGGUAGGAAGUGUGGCUCUGGGUCUGUGGUCACUCUCCACCUUGUCCUAGUGUUGCCAUGGUAGCAUGGCUUUGUAGUUUGCAUUUAUGGAAUUCUCGGGUGCCAA | 0.848
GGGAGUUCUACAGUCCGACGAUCACUCAUUUUUUGUAUUUUUAGUAGAGAAGGGGUUUUACCGUGUUAGCCAGGCUGGUCUUGAACUCCUGACCUUGGGUGAUCCACCUGCCUCAGCCUCCCAAAGUGCUGGGUGGAAUUCUCGGGUGCCAA | 0.633
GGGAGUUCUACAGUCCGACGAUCUUUUUAGCCGUAAUUAAAGAAAAAAAAAGUCCUCUGUGAGGAAUAUUCUCUAUUUUAAAUACUUUUAGUAUGUACUGUGUAUGACUCAUUACCAUUUUGAGGGGAUUUAUUGGAAUUCUCGGGUGCCAA | 0.617
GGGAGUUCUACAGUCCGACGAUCUUCUCCGUUCCCCUUCAUCUCCGUCCCCCUCUUUGAAGCUGUCCCCAUCUCAGUGUCAGACCAGCCUUCUCCUCAGCUGACCACCCUCCUCUGACCCACGCCCCCUCCUUUGGAAUUCUCGGGUGCCAA | 1.02
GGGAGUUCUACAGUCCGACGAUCAUCCUGUGUCUCCUGCUGUGUGGACACAUGUCACUCCUGCUCCACAUGCCAACAUGGUUCAUUUCCAAGGGCACCCUAUAACCAGAGAGCACAUUAAUUCCUGUCCUAUAUGGAAUUCUCGGGUGCCAA | 1.07
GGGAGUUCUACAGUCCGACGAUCCCAUAAAAUCUGGCUCGUCUUUGAUGAACAAUAAAUAUUUGUUGAACAAAUAAAUAACUGCCCUGCAUUAAGUCUGUAGCGGGCUUUCUUUUCUGUGUGACCUCAUUUCUUGGAAUUCUCGGGUGCCAA | 0.928
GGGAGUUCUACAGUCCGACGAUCCAAAGCAUAGCAUUUUAGCAUCAACUACAAUCAAAAGAGCGAUUUGCUGAAGGAAAAAUCGGACUGCAAAUCAUUCCAAGGCCAAACUGCAACUGAGCCACCCACUCCCAUGGAAUUCUCGGGUGCCAA | 0.657
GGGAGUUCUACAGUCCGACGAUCCUGAAGCCCUCUGUUGAACAACAGGGCCAGAUCCUAAAGCUCUUUCAGGGAGCUCUUCUCUGGGGCUGGAACAGUUGAUUAUGCAACCCCAUUGUGUGGAGAUUGGAUCAUGGAAUUCUCGGGUGCCAA | 0.397
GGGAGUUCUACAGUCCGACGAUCAACAAUUUCAACAAUGACACAAAAAUUCACAUGGAAAUGGGGAAGAUGGUCUGUUUUGACAGAAACUGACAGGAAUCAAAACAAUCGAAUUUUGAAUUGAGUGAAGUGCAUGGAAUUCUCGGGUGCCAA | 0.573
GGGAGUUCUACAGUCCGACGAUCUCCAUUGUCCUUGUAGUUUCUUCCCUCCUGUUCUCUGGUUAUAGCUGGUCCCAGGUCAGCGUGGGAGGCACCUUUGGGUUCCCAGUGCCCAGCACUUUGUAGUCUCAUCCUGGAAUUCUCGGGUGCCAA | 0.453
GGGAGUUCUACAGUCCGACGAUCGCUCCUUGGAUGGUGAAUAGCUGCCCUUCUUGCUUCACCAUUCCAAGCCCAUUCCGGGAUGGGUGGCGAGCACAGGGUGCAUAAGCAAGCUGUUCUUCCCAGUCGGUAGGUGGAAUUCUCGGGUGCCAA | 0.539

A few entries again (block 1):
Sequence | E-score
ATCCCATA | -0.0982
AATAACCA | -0.337
AACCTCGC | 0.0873
TTAAACAA | -0.285
